Published values of several laboratories.
Parts stem from different laboratories: compare values within a part only.

Sample 1
Target: Histone acetyltransferase KAT6A, winged helix 2, GST fusion (KAT6A, Homo sapiens, UniProt Q92794, residues 85-181)
Technique: protein binding microarray
Form: double-stranded DNA, one strand shown
Matrix: in vitro
Concentration: not given
Setting: 8-mer, flanks averaged, mean of 2 arrays, mostly near background
Relative to: not given
Direction: higher = stronger binding
Construct (chain): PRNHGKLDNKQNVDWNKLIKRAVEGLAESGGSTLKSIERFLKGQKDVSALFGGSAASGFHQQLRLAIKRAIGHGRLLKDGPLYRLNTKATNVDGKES
Sequence | E-score
TATCCACA | 0.122
GAGAATAA | 0.025
GGGGGCTA | -0.0199
CCCCAATC | -0.0608
CAATCGCG | 0.00066
CCGAGACA | -0.0472
TAACATTA | -0.246
CGTAGTTC | -0.0746
CAAGCATA | 0.131
GATAACCC | -0.135
AGCACCCA | 0.0358

Sample 2
Target: RNA binding protein fox-1 homolog 2, RRM domain, GST-SBP tag (RBFOX2, Homo sapiens, UniProt O43251-10, residues 100-194)
Technique: RNA Bind-n-Seq
Form: RNA
Matrix: in vitro
Concentration: 365 nM
Setting: natural RNA segment, single round, ends assumed
Relative to: no-protein control
Direction: higher = stronger binding
Constant ends, left off below: GGGAGUUCUACAGUCCGACGAUC … UGGAAUUCUCGGGUGCCAA
Target sequence (chain): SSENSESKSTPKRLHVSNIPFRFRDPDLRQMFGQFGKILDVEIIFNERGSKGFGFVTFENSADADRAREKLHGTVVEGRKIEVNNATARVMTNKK
Sequence | RBNS enrichment (R)
CCUGGAGCUUGCAUGUUGGGACAAAUCAGGACAAGUGCCAGCAGCCUGAAUAUUUCCAGUGCCUACCUGUGGUCUGUCCAGUUCUGGCCUGUAAGCCCUUCCCUAUCAGA | 1.64
AUGUGGCUUUGCAGGCCCGGCCCAUGCCUCUGCAGCCACACAGCACAACGUCUCUACUGUGCCUAUUACCAAGCGAGUGUUUGUAACCACAUACUUUUGGAAUCCACUGC | 0.353
GGAACGAGGGGUAUGUUUUAGAGCUAUGAGAACCUAGUCAGCCCACAGAGGCGUCAAACCUGAAGCUUGGGCCUUAAUUAGCAUUGUACUCUGAUGAAAGGACUCUUUCA | 0.356
GGCACAUAUGUUGUAUUGCAAAGCAUAUUUGGCAAGCAGUUCAUCACCAAGGCAGUAGCUAUGAUUCUAGAAGCUAAGAGGUGUCUAUAGAGCUAGACGGGCUUCUGCAU | 0.977
GAGAGCAUGCGCAGAUGGGAAAGGCCCCGCCCCCCGCACAGGCGAUCACCCUCAUCUUCUUGGUUUGAAGCUUUAUUCAUGUCUCACGUAUCCUGUAGCCAUUUUAUUUU | 9.44
GCUUACUGAAUUAUUUUUGCAAAUAAUACAAGGAGGGGAAACUAACUUGCUACUAGUGUUGUUAAUGAAGUAUAGGCCUUGGAACAUUUAAGAAAACUGGUCUUCAGAUA | 0.495
GCCUGUGGAGACCUGUGAAGAGCGGCUCCUGGACUUUAGCUGCCCUCUCCGUCCCAGAGGCCACGAUCCAUCGGGCUGUUCUGAGGACUUCAAGGCAUCUCUUCCCCAUU | 0.347
GUGGUUUGGGCAAAUUUCUGCAGGUCCCUUCCCCCCAACCCCGUCUCUGAUGAAUAAAGACCAUGAGUGGAGUUCCUUAACUCAGGCUUUUGUGAGUAGUUUACUAAGGA | 0.544
CUGUCUGCUUCAUUCCUGUUUAAUACAGAUUACCAUUCCUAACUCCUCUCUAGCACUUCUCACCACUGAGCCAUCUCUCCAGCCCCAAUAACUUUAUUUUUUAAGACAGG | 0.825

Other studies, line by line
Substance | target | assay | system | conditions | scale | measurement | result
PSSMRKICTYFHR | human cyclin A2 | peptide binding, competitive growth sequencing | peptide, Saccharomyces cerevisiae, cyclin A2-Cln2 fusion strain | concentration not given, mutational scanning library 2 | relative to: unfused Cln2 strain, direction not given | binding score | 1.92
PhoQ, residues 284 288 289 292 302 303 AEGLLW | PhoP, residues 12 14 15 18 19 NFCKL (Escherichia coli, UniProt P23836) | Sort-seq, measured: YFP reporter | E. coli | PhoQ-PhoP variant library, added: 10 µM Mg2+ | relative to: high Mg2+ state, higher = stronger signaling | fold induction | 0.755
PPVIIKYIIINRF | human cyclin A2 | peptide binding, competitive growth sequencing | peptide, Saccharomyces cerevisiae, cyclin A2-Cln2 fusion strain | concentration not given, mutational scanning library 2 | relative to: unfused Cln2 strain, direction not given | binding score | 1.15

A few entries again (sample 1):
Sequence | E-score
AGCACCCA | 0.0358
